Results pooled from the literature.
Numbered parts are unrelated; each lists some results of a single study. Substitutions count along the parent as printed.

Block 1 — method: universal PBM; form: double-stranded DNA, one strand shown; sample: in vitro; tested at: not given; direction: higher = stronger binding
Target: Sal-like protein 4, full length isoform B (SALL4, Homo sapiens, UniProt Q9UJQ4-2, residues 1-616)
Setting: 8-mer, flanks averaged, mean of replicates
Target sequence (chain): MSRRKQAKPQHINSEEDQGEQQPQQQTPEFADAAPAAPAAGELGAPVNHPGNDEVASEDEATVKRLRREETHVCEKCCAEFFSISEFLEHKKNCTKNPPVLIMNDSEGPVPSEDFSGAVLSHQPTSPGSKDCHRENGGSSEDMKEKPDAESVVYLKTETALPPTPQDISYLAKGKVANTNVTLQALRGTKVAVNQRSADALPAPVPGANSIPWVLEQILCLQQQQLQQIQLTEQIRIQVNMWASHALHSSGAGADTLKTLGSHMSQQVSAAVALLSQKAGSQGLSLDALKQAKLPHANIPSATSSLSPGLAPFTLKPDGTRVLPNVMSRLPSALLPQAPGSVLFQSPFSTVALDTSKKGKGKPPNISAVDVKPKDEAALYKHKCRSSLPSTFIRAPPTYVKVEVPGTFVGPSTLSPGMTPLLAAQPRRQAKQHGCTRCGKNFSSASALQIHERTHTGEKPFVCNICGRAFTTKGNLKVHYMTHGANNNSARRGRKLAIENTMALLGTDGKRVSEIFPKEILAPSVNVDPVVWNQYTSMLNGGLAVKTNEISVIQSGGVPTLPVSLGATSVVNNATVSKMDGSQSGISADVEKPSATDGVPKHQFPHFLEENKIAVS
Strand | E-score
ATAATCTG | 0.211
ACGATGCT | -0.173
ACCTTAGC | -0.056
TCGGGAGA | -0.139
ACAACTCC | -0.148
CCGTCGCA | -0.167
CCCGAAGC | -0.188
CCGGGATC | -0.377
AAGTGAAC | 0.0362
GTGCCGCA | -0.132
GAAAGCCA | -0.187
CTTCCTTA | 0.0902
CGGCGTGA | -0.261
CTTCCTCA | -0.0546
CGCGAGTC | -0.208
AGATTCCT | -0.028
CGAACTTC | -0.0341
CGAATGGC | -0.15
CGTGCTCA | -0.117
CCTTTACG | 0.104
CCCTATGC | -0.0786
CCAGAATC | -0.12
AGTCGTCG | -0.148
AGTGGCGA | -0.0765

Block 2 — method: protein-binding microarray; form: double-stranded DNA, one strand shown; sample: in vitro; tested at: 2200 nM top; setting: 60-bp whole probe; added: salmon DNA 0.4 mg/ml; reference: random background probes; direction: higher = stronger binding; constant ends, left off below: GCCTAGCAC … GTCTTGATTCGCTTGACGCTGCTG
Target: Interferon regulatory factor 7, full length, phosphomimetic (IRF7, Homo sapiens, UniProt Q92985, residues 1-503, S471D/S472D/S475D/S476D/S477D/S483D/S484D/S487D)
Sequence of UniProt Q92985 (whole entry, unmodified, looked up): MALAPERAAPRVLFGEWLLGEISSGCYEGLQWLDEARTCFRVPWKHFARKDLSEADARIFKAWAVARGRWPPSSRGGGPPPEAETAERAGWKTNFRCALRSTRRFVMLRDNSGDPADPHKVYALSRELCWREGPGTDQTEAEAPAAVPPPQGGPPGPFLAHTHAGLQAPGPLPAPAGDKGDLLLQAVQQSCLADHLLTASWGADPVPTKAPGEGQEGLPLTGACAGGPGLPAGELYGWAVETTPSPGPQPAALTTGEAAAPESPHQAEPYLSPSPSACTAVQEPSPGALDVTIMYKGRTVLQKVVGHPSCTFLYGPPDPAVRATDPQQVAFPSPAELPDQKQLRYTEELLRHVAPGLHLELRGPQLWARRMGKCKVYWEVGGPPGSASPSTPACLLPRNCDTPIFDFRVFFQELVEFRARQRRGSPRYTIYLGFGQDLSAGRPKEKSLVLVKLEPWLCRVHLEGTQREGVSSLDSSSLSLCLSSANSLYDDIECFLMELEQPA
Strand | fitted relative affinity
GACGTTCTCAGTTTCGAGACGTGCTAG | 3.76 z-score
CACGGTATCGGTCTCGGGACGTGCTAG | 0.158 z-score
GACGATATCCTTCTCCTGACGTGCTAG | 1.35 z-score
TCACTTTTGGCTTTCCTACTGTGCTAG | 4.56 z-score
TTAGGTCTCGGTCTCGGGTAGTGCTAG | 0.425 z-score
TTAGGTCTTCTTTTCCTTTAGTGCTAG | 1.75 z-score
GACGAGATCGGGTTTCGAGACGTGCTA | 1.42 z-score
GACGGTATCGACTATCGGGCCGTGCTA | -0.285 z-score
TCAGGTTTCACTTTCCAACTGTGCTAG | 8.18 z-score
GACGAACTGGGGCATCGAGACGTGCTA | -0.17 z-score
GACGATATCAGTTTAGAGACGTGCTAG | 0.0886 z-score
ACTCTAATCTCACTCTGTCCGTGCTAG | 1.43 z-score
CTTCCTCTTTCTCTGCTACCGTGCTAG | 3.22 z-score
AACTAAAGAGACCACAAAAAGTGCTAG | -1.36 z-score
GACGGTCGCCTTCTCCTGACGTGCTAG | 0.382 z-score
TTAGGTATCGGACAGGGTTAGTGCTAG | 0.00185 z-score
TTAGATTTCAGTCTCGATTAGTGCTAG | 0.819 z-score
AAGCTCCTATCTTATGATATAGTGCTA | 0.227 z-score
GACGATTTCGGGTTTCGAGCCGTGCTA | 4.72 z-score
TTAGGTCTCCTTCTCCTGTAGTGCTAG | 1.05 z-score
CCATTTTGGTTTTCTCTATTGGTGCTA | 3.37 z-score
GACGGTATGGGTTTCGGGACGTGCTAG | 1.33 z-score
GACGGACTGGGGCTGGGGACGTGCTAG | -0.42 z-score
TTAGATATCAGTCTCGATAAGTGCTAG | 0.129 z-score
GACGATCTCTGTCTCGAGACGTGCTAG | 0.57 z-score

Block 3 — method: RNA Bind-n-Seq; form: RNA; sample: in vitro; tested at: 365 nM; reference: no-protein control; direction: higher = stronger binding
Target: RNA binding protein fox-1 homolog 2, RRM domain, GST-SBP tag (RBFOX2, Homo sapiens, UniProt O43251-10, residues 100-194)
Setting: natural RNA segment, single round, ends assumed
Residues (chain): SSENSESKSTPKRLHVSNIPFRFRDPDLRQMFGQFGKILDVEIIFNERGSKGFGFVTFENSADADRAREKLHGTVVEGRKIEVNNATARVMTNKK
Strand | RBNS enrichment (R)
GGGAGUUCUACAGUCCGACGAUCCUCUGCCUUGACCUGAGGAAGACCAUGCUAACUGGUGUUAUUUUGUAUGUACCCUGUGCUUAAUUCUAUAACAGUAAACCCCAUACGCAGGUGGGAGGGAGGAACACCGGUGGAAUUCUCGGGUGCCAA | 1.2
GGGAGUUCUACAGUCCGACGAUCCAUUGCAUAUCAAUCAGUUAAUACACUUAAUGUUGCAUGAGUGAUAUUUUGGUCUGGGUUUCCUCUUAAGAUUUUAGUUUGUCUGAAUUAAGGAAAAAUGUUUUUAAUAUUGGAAUUCUCGGGUGCCAA | 1.36
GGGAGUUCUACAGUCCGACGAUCUCUUUGGCUCUCUCUGAAAUGCCCGUCUCAUCCUGUCUUUUUCGAGCAUGGCUCACAGGCCUUGUGUCUGGGUGAAGGGAACCCAGGGUCAGGCUGCACUUCUGUUUCUGUGGAAUUCUCGGGUGCCAA | 1.71
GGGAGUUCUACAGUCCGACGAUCUAAAAUUUUAGGACCGAUUUCAGAAAUAGUCAAAGGAGCAACAGAACAUUCAUUGUAUUUUGGUCUUGAGAAAUGCCUAUAGUUUUCCAAAUUAUUCUUGUACAGUUUUAUGGAAUUCUCGGGUGCCAA | 1.07
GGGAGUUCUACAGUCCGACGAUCAUUGAACAUGUGAUAAUCUAAUACCUGUGAAAACUGACUAAUCAGCUGCCAAUAAUAUCUAAUAUUUUUCAUCAUGCACGAAUUAAUAAUCAUCAUACUCUAGAAUCUUGUGGAAUUCUCGGGUGCCAA | 0.832
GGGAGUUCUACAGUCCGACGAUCGGGACAGGCCUGGAUGAUCUAGCUCAUACCAAAGGACCUUGUUCUGAGAGGUUCUUGCCUGCAGGAGAAGCUGUCACAUCUCAAGCAUGUGAGGCACCGUUUUUCUCGUCUGGAAUUCUCGGGUGCCAA | 2.54
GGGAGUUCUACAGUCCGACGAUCACUGAUAUGGAAACGUACUUUUGUAUUUCAUGCUCAAGAGGAGUUUUGUUUUUGCUUUUUGUUGUUGUUUUGUUGUUGUUAUUUUGUUUGUUUAACAUGGAGUCUCACUCUGGAAUUCUCGGGUGCCAA | 4.22
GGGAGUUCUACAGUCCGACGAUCGGGCCGGAGGUCUCGAAGCCUCAGCUUUUACUUUGUGAGCUGCAACACUCGCUUCAGCUCAGACUCAGUGGACAUCAGAGUCUCUGUCUCCGUGUCUCAGUUAUGGUCUGUGGAAUUCUCGGGUGCCAA | 0.214
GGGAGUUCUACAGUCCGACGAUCUGUUGCCCAGCUCAGGGUGUCUGCUUGGUGGCUCUAACCCCUGCCCAUCCAGUUGUUUCUGGGCUGUGCGAGAGAUCAUACAUUGAUCUGUGUGUGAUGAGUUGAGGGCUUGGAAUUCUCGGGUGCCAA | 0.492
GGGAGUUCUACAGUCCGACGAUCGCGGUCCGUGCACCAUGCCGCCUGUGACCUGCAUCUGCUCCAAGCAGAGACUUUGGCUUUUUGUUUAAAGAUGCCUUUAUUUUAGAUCCAGGAGGGGUUUGCUCUGAAUUUGGAAUUCUCGGGUGCCAA | 0.439
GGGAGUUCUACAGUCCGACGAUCUGGGCACUUCCCAGGCUCAAUGCUCAGCCAGAGUUUGCUGGUGGACCUCAGGAUUCGAAGUGUGCAACAGACGGAGUGCGCUUGCUGUUCAGGGCGGCCCCGUGCAGGAGUGGAAUUCUCGGGUGCCAA | 0.785
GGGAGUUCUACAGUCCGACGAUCUCAUCUGCUUUGUGUACAUAUGGUAUUAAAACUGAAAACAAAUAUUCUUGACAUUUGGGUUUCAAAAUUGUGUUAGCACUUAUUUUAGAAACAUUAAUUAAGUGUAUGGCUGGAAUUCUCGGGUGCCAA | 0.599

Block 4 — target: BATF2, bZIP domain (human); method: DHFR protein complementation; sample: yeast; reference: wild-type JUN-FOS pair; direction: higher = stronger binding
Setting: single substitutions, most at no-binding floor
Starting sequence: JUN, bZIP domain (human); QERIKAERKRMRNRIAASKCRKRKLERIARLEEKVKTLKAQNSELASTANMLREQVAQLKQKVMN; partner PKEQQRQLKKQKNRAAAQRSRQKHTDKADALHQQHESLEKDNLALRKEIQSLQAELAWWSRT
Substitution | binding fitness [natural log]
S47K | -0.0204
E54G | -0.456
Q41A | -0.421
K39Y | -0.75
Q55H | -0.603
L52D | -0.842
Q55A | -0.288
I28N | -0.73
L38P | -1.28
V56S | -1.48
A57M | -0.525
E32G | -0.852
M51W | -0.332

Block 5 — method: DHFR PCA, deep sequencing; sample: yeast; added: (+)-ABA 0.0091 µM; reference: wild-type fitted maximum; direction: higher = stronger binding
Target: ABI1, truncated, D143A, DHFR fusion (Arabidopsis thaliana)
Setting: methotrexate growth selection, single substitutions
Starting sequence: PYL1, truncated, DHFR fusion (Arabidopsis thaliana); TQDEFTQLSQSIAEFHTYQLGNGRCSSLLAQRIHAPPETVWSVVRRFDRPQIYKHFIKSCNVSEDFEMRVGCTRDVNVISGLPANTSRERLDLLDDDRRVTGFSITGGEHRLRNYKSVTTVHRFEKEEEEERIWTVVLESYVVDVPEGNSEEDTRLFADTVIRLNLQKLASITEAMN
Substitution | relative binding score [%]
G102A | 7.49
L166S | -2.8
V40Y | -9.05
S42N | 29.8
E151G | 4.82
F47C | 2.89
R88S | 5.37
C72A | 63
I162W | -2.71
L82W | 52.7
R123L | -2.42
I79V | 47.2
R74S | -2.11
F103Y | 65.2
T120D | -5.7
G23F | 7.11
E109L | -5.62
D144Y | 4.33
R90W | -4.65
P83L | 3.2

Block 6 — target: CCNB2, cyclin fold, Cln2 fusion (human); method: yeast growth competition, sequencing; sample: yeast; setting: weak parent motif; reference: not given; direction: higher = stronger binding
Starting sequence: E2F1 docking peptide (human); PPVKRRLDLETDH
Substitution | normalised enrichment score
PPVKRRLDLKTDH [E10K] | 0.115
PPVKPRLDLETDH [R5P] | -0.735
PPVKRRLDLESDH [T11S] | 0.723
MPVKRRLDLETDH [P1M] | 0.494
PPVKRRLDLELDH [T11L] | 0.946
PPVKRRDDLETDH [L7D] | 0.0672
PPVKWRLDLETDH [R5W] | 0.192
IPVKRRLDLETDH [P1I] | 0.161
PPVKRRLDLENDH [T11N] | 0.141
PPVKRMLDLETDH [R6M] | 0.158
PPVARRLDLETDH [K4A] | 0.334
PPAKRRLDLETDH [V3A] | 0.899
PPVKRRLDLETVH [D12V] | 0.474
PPVSRRLDLETDH [K4S] | -0.00712
PPVKRRTDLETDH [L7T] | 0.34
PPVKRRLRLETDH [D8R] | 0.235
PPVKRRLDLHTDH [E10H] | 0.745
PTVKRRLDLETDH [P2T] | 0.111
PPVKRRLDLERDH [T11R] | 0.308

Other studies, line by line
Substance | target | assay | system | conditions | how to read | endpoint | result
PhoQ, residues 284 288 289 292 302 303 GNNTDL | PhoP, residues 12 14 15 18 19 IQSYL (Escherichia coli, UniProt P23836) | Sort-seq, item: YFP reporter | E. coli | PhoQ-PhoP variant library, added: 10 µM Mg2+ | reference: high Mg2+ state, higher = stronger signaling | fold induction | 12

Some of these lines once more (block 6):
Substitution | normalised enrichment score
PPVKRRDDLETDH [L7D] | 0.0672
PPVKWRLDLETDH [R5W] | 0.192
IPVKRRLDLETDH [P1I] | 0.161
PPVKRRLDLENDH [T11N] | 0.141
PPVKRMLDLETDH [R6M] | 0.158
PPVARRLDLETDH [K4A] | 0.334
PPAKRRLDLETDH [V3A] | 0.899
PPVKRRLDLETVH [D12V] | 0.474
PPVSRRLDLETDH [K4S] | -0.00712
